Assay results pooled from the literature.
Each line is one published result; not all experiments were run side by side. Numbers after ± are the reported error.
Chain of UniProt P09936 (whole entry, looked up): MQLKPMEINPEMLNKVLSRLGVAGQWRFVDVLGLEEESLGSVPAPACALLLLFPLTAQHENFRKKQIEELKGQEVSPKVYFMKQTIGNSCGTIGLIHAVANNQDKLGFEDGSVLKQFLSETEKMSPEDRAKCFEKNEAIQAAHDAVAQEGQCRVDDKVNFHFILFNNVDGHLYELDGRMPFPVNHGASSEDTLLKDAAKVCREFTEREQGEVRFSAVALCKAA

SMILES	target or system	assay	system	setting	how to read	quantity	result
CC(C)NCC(O)c1ccc(NS(C)(=O)=O)cc1 (racemic)	–	–	male Hartley guinea pigs, anaesthetized	intravenous, 1 mg/kg over 10 min, after infusion	–	mean blood pressure	39 ± 0.3 mmHg
Cc1ccc([C@@H]2O[C@H](CO)[C@@H](O)[C@H](O)[C@H]2O)cc1Cc1ccc(-c2ccc(F)cc2)s1	–	–	Japanese type 2 diabetes patients	100 mg, day 5, 24 h urine collection	relative to: baseline	urinary magnesium excretion change	14.5 mg
Cn1cncc1-c1c(F)cncc1NC(=O)c1c(N)nn2cc(F)cnc12	–	two-compartment PK-TGI model	xenograft-bearing mice, plasma	–	–	elimination rate constant k10	0.74 h⁻¹
Cc1noc(C)c1Cn1cc(N2C(=O)CN(Cc3cccc(O)c3)C2=O)cn1	–	–	pooled rat liver microsomes Sprague-Dawley	10 µM, 30 min, pH 7.4	–	remaining parent	95 % peak area
C=CC(=O)N(C)CCOc1c(N)ncnc1-c1cc(F)cc(NC(=O)c2ccc(C3CC3)cc2F)c1C	–	–	human, whole blood	oral, 100 mg, single ascending dose	–	mean residence time	2.84 h
COc1ccc([C@@H](O)c2cc(-c3ncnc4cc(N5CCOCC5)ccc34)c(F)cc2Cl)nn1	–	–	locally advanced rectal cancer patients	150 mg, together with: capecitabine and radiotherapy	–	metabolism nutrition disorder TEAE	50%
Cc1c(-c2ccc(N3CCc4cccc(C(=O)Nc5nc6ccccc6s5)c4C3)nc2C(=O)O)cnn1CC12CC3(C)CC(C)(C1)CC(OCCNCC[C@H](O)CO)(C3)C2	–	–	beagle dog, male, anaesthetised	intravenous infusion, 0.3 mg/kg/min, 30 min	relative to: vehicle	QTcV interval change	10 ms
CCn1cc(C(=O)N2CCOCC2)c(=O)c2cc(NC3Cc4ccccc4C3)cnc21	–	–	human, fed	oral suspension, 300 mg single dose, arithmetic mean	–	half-life	3.87 h
CCO[C@H]1CCN(Cc2c(OC)cc(C)c3[nH]ccc23)[C@H](c2ccc(C(=O)O)cc2)C1	–	–	PNH patients, active haemolysis	oral, 200 mg, 8 weeks, treatment	–	incidence upper respiratory infection	0%
OCc1nc2ccc(NCc3ccc(C(F)(F)F)cc3)cc2[nH]1	–	–	Balb/c mice, male, plasma	intravenous, 1 mg/kg	–	Vz/F	28.7 ± 4.5 L/kg
CCC(CC)C(=O)Oc1cccc(C(O)CCN)c1.O=CO (stereo not shown)	–	scotopic ERG	BALB/cJ mice	intraperitoneal, 10 mg/kg, 0.5 h dark adaptation, together with: 10,000 lx photobleach, 10 min	–	ERG a-wave amplitude	0 µV
CNC(=O)c1ccc(-c2cnc3ncc(Cc4ccc5ncccc5c4)n3n2)cc1F	–	CTCAE v4.0, any causality	human cancer patients	oral, dose not given, dose escalation	–	upper abdominal pain incidence (all grades)	13%
C=CC(=O)N1CCC(Oc2cc3c(Nc4ccc(Cl)c(Cl)c4F)ncnc3cc2OC)CC1	–	–	male Sprague-Dawley rats, plasma	oral, 2 mg/kg, together with: schisandrin B pretreatment 20 mg/kg daily 1 week	–	CL/F	5.83 ± 1.17 mL/min/kg
Cc1nccc2c1c(=O)n(C)c1cc(OC[C@@H](N)CC(C)C)c(C#N)cc21	–	–	rat, lumbar spinal cord	intrathecal, 1 µg, 30 min	–	concentration	317 nM
CC[C@H](C)[C@H](NC(=O)CN)C(=O)N[C@@H](C)C(=O)N[C@@H](CCCCN)C(=O)N[C@@H](Cc1ccccc1)C(=O)N[C@H](C(=O)N[C@@H](CCCCN)C(=O)N[C@@H](CCCCN)C(=O)N[C@H](C(=O)N[C@@H](C)C(=O)N[C@@H](CCCCN)C(=O)N[C@@H](C)C(=O)N[C@@H](CC(C)C)C(=O)N[C@@H](CCCNC(=N)N)C(N)=O)[C@@H](C)CC)[C@@H](C)CC	–	circular dichroism at 222 nm	10 mM SDS	100 µM, pH 4.0	–	mean residue ellipticity	-10900 deg cm2/dmol
[18F]c1ccc(-c2ccc3c(c2)[nH]c2ccncc23)cn1	–	ex vivo biodistribution	B6SJL mouse, normal, cortex	intravenous, 30 min	–	SUV	0.471 ± 0.155
O=C1CC[C@H](N2Cc3cc(N4CCN(CC5CCN(c6ccc([C@@H]7c8ccc(O)cc8CC[C@@H]7c7ccccc7)cc6)CC5)CC4)ccc3C2=O)C(=O)N1	–	–	human, plasma	oral, 200 mg, 49.5 h, together with: dabigatran etexilate 75 mg	–	Clast	120 ng/mL
Cc1cc(C)cc(C(=O)c2c(C(C)C)c(=O)[nH]c(=O)n2Cc2ccnc(N)c2)c1	–	–	Sprague-Dawley rat, male, plasma	intravenous, 20 mg/kg	–	C0	200 ng/mL
Cc1cc(C#N)cc(C)c1Oc1nc(Nc2ccc(C#N)cc2)nc(N)c1Br	–	–	FaSSIF	no polymer	–	maximum supersaturated concentration	95 µg/mL
C=CC(=O)Nc1cc(Nc2nccc(-c3cn(C4CC4)c4ccccc34)n2)c(OC)cc1N(C)CCN(C)C	–	–	BALB/c nude mouse, LU0387 xenograft, blood	oral, 40 mg/kg	–	EO percentage	1.24 ± 0.172%

SMILES	target or system	assay	system	setting	how to read	quantity	result
COc1ncc(-c2nc3c(n2C(C)C)[C@H](c2ccc(Cl)cc2)N(c2cc(Cl)cn(C)c2=O)C3=O)c(OC)n1	–	–	human patients, plasma	oral, 50 mg, high-dose arm, cycle 2 day 1	–	median half-life	15 h
CC(C)(C(=O)N1CCOc2c(C#N)cncc2C1)C(F)F	–	–	human	oral, 40 mg	–	subjects with any adverse event	100%
Cc1cc(C)c(CNC(=O)c2cc(Cl)c3c(c2C)O[C@@](C)([C@H]2CC[C@H](N(C)C)CC2)O3)c(=O)[nH]1	–	–	human relapsed/refractory NHL	oral, 200 mg once daily, onset day 1 to 14	–	ALT increased grade ≥3	0%
O=C(CCCN1CC=C(n2c(=O)[nH]c3ccccc32)CC1)c1ccc(F)cc1	–	–	male Hartley guinea pigs, anaesthetized	intravenous, 0.1 mg/kg group, baseline before infusion	–	mean blood pressure	40 ± 0.3 mmHg
CCCCCCCOc1ccc(CCC(N)(CO)CO)cc1C(F)(F)F.Cl	–	–	healthy men, plasma	oral, 0.5 mg, day 1	–	AUC(0-tau)	4.36 ng·h/mL
N[C@@H](Cc1cc(I)c(Oc2cc(I)c(O)c(I)c2)c(I)c1)C(=O)O	–	–	–	–	–	pKa (basic)	8.9
COc1cc2c3c(n(CCCN4CCOCC4)c(=O)c2cc1OC)-c1cc2c(cc1C3=O)OCO2	–	–	beagle dog, female, plasma	intravenous infusion, 50 mg/m^2, 1 h infusion, vehicle 2	–	Cmax	257 ± 31 ng/mL
O=C(O)c1cccc2ccccc12	–	–	sheep erythrocytes	1 h, pH 7.5	–	maximum haemolysis	6.49%
Cc1cc(-c2nccc3c2ccn3CC(=O)Nc2ccc(-c3cnccn3)cn2)ccn1	–	–	human	20 mg once daily, multiple ascending dose	–	subjects with Folliculitis adverse event	0%
Cc1cc(NC(=O)c2cccc(NC(=O)/C=C/CN(C)C)c2)ccc1Nc1nccc(-c2cccnc2)n1	–	–	rat Wistar male, plasma	1 µM, 60 min	–	remaining compound	86.7%
C=CC(=O)N(C)CCOc1c(N)ncnc1-c1cc(F)cc(NC(=O)c2ccc(C3CC3)cc2F)c1C	–	–	human	oral, 20 mg, day 7, geometric mean, together with: ritonavir	–	AUC(0-last) per dose	19.5 ng·h/mL/mg
CCc1cc2ncc(CN3CCN(c4ccc(C(=O)NC)nc4)CC3)cc2[nH]c1=O	–	–	male rat, blood	oral, 25 mg/kg/day, 4 weeks	relative to: vehicle control	white blood cell count ratio	0.64
CC(C)(C)c1ccc(C(O)CCCN2CCC(C(O)(c3ccccc3)c3ccccc3)CC2)cc1 (stereo not shown)	–	–	male Hartley guinea pigs, anaesthetized	intravenous, 0.3 mg/kg group, baseline before infusion	–	mean blood pressure	34 ± 0.2 mmHg
COc1nc(-c2cc(C)c(N[C@@H](C)c3cc(F)cc(F)c3)nn2)ccc1-n1cnc(C)c1	–	–	rat Sprague-Dawley male, plasma	oral, 25 mg/kg daily for 9 days, 4 h after dose	–	concentration	13400 ng/mL
COc1cc(Nc2ncc3c(n2)-c2ccc(Cl)cc2C(c2c(F)cccc2OC)=NC3)ccc1C(=O)O	–	–	patients	oral, dose not given, grade 1, any attribution, together with: pembrolizumab	–	decreased lymphocyte count incidence	38%
O=C(Nc1nc2cccc(-c3ccc(CN4CCS(=O)(=O)CC4)cc3)n2n1)C1CC1	–	–	rheumatoid arthritis patients	oral, 100 mg twice daily, 4 weeks, regardless of relatedness	–	patients with renal disorders	0%
CCOc1c([C@H](C)n2nc(C)c3c(N)ncnc32)cc(Cl)c(F)c1[C@@H]1CNC(=O)C1	–	–	patients, monotherapy	oral, 10 mg once daily, cycle 1 day 15	–	Tmax median	1 h
N#CC(=Cc1cccc2c1OCO2)C(=O)Nc1cccc2ccccc12	UCHL1 (Homo sapiens, UniProt P09936)	covalent, intact protein LC-MS	–	12.5 µM	–	labelling	33.9%
Cc1c2oc3c(C)ccc(C(=O)N[C@@H]4C(=O)N[C@H](C(C)C)C(=O)N5CCC[C@H]5C(=O)N(C)CC(=O)N(C)[C@@H](C(C)C)C(=O)O[C@@H]4C)c3nc-2c(C(=O)N[C@@H]2C(=O)N[C@H](C(C)C)C(=O)N3CCC[C@H]3C(=O)N(C)CC(=O)N(C)[C@@H](C(C)C)C(=O)O[C@@H]2C)c(N)c1=O	–	–	children with cancer, plasma	dose not given, 15 min	–	maximum plasma concentration	122 µg/L
C[C@H]1CNC(=O)c2cnn3ccc(nc23)N[C@H](C)c2cc(F)ccc2O1	–	–	Balb/c nude mice, female, plasma	oral, 75 mg/kg twice daily, 1 h, steady state	–	unbound concentration	81 ± 24 nM

SMILES	target or system	assay	system	setting	how to read	quantity	result
CCC(=O)NCC[C@@H]1CCc2cc(O)c3c(c21)CCO3	–	sulfation, substrate	pooled human liver cytosol	50 µM, 30 min, together with: 50 mM NaF	–	specific activity	13.4 ± 0.81 pmol/min/mg
O=C(COc1ccc(Cl)cc1)NC12CC(c3nnc([C@H]4C[C@@H](OC(F)(F)F)C4)o3)(C1)C2	–	refers to: Nausea	human	oral, 145 mg once daily, 14 days	–	adverse event incidence	14.3%
Cc1ncc2c(c1O)COC2c1ccc(Cl)cc1 (stereo not shown)	–	–	–	–	–	pKa (basic)	4.2
COc1ccc(C[C@@H](C)[C@@H](C)Cc2ccc(OC)c(OC)c2)cc1OC	–	–	beagle dog male, plasma	oral, 1000 mg/kg/day, day 1	–	Cmax	2770 ± 548 ng/mL
CC(C)(C)c1ccc(O)c(CN(Cc2cc(C(C)(C)C)ccc2O)C2CCC(NC(N)=O)CC2)c1 (stereo not shown)	–	–	C57BL/6 mouse, male, brain	intraperitoneal, oral, 10 mg/kg	–	t1/2	~7 h
Cc1ccc(Sc2ccccc2N2CCNCC2)c(C)c1	–	–	healthy adult men	oral, 10 mg single dose, treatment-emergent adverse events	–	vomiting incidence	0%
C[C@H]1CN(C(=O)CC#N)[C@]12CCN(c1ncnc3[nH]ccc13)C2	–	–	healthy adult humans	oral, dose not given, all compound groups	–	participants with TEAEs	18.8%
CNC(=O)c1ccc(-c2cnc3ncc(Cc4ccc5ncccc5c4)n3n2)cc1F	–	–	human mild hepatic impairment	oral, 200 mg single dose, adjusted geometric mean	–	unbound AUC(0-inf)	147 ng·h/mL
CC(F)(F)c1cc(F)ccc1-c1sc2cc(O)ccc2c1Oc1ccc(/C=C/C(=O)O)cc1	–	–	human, serum	oral, 900 mg once daily, cycle 1 day 28, fasted, mean	–	AUC(0-last)	42100 ng·h/mL
CN1CCN(C(=O)CN(c2cc(C(F)(F)F)ccc2Cl)S(=O)(=O)c2ccccc2)CC1	–	–	–	–	–	pKa	6.78
Cn1cc(Nc2nccc(-c3ccc4c(c3)CN(C3COC3)CC[C@H]4NC(=O)c3cn(C(C)(C)C)nn3)n2)cn1	–	–	human, whole blood	50 mg twice daily, day 7	relative to: pre-dose baseline	CD8+ T cell count change	21.9%
CC(C)C[C@H](NC(=O)[C@@H](Cc1c[nH]c2ccccc12)NC(=O)[C@H](Cc1ccc(O)cc1)NC(=O)[C@H](CO)NC(=O)[C@H](Cc1c[nH]c2ccccc12)NC(=O)[C@H](Cc1c[nH]cn1)NC(=O)[C@@H]1CCC(=O)N1)C(=O)N[C@@H](CCCNC(=N)N)C(=O)N1CCC[C@H]1C(=O)NCC(N)=O	–	–	Chinese CPP children, overall	intramuscular, 22.5 mg, 12 months, day 1, month 6	–	patients, drug-related reproductive TEAEs	4.5%
O=C(O)CCC(=O)O.[2H]C([2H])([2H])Oc1cc(C)c2[nH]ccc2c1CN1CC[C@@H](C2CC2)C[C@H]1c1ccc(C(=O)O)cc1	–	ECG	healthy Chinese subjects	oral, 100 mg twice daily, multiple ascending dose	–	TEAE T wave abnormality	0%
COc1cc2[nH]c(C)c(-c3ccoc3)c(=O)c2cc1Cl	–	–	PAMPA	pH 7.4	–	Papp	67 ×10⁻⁶ cm/s
Cn1cc([C@H]2C[C@H]3CSC(N)=N[C@@]3(c3ccc(F)cc3F)CO2)cn1	–	–	male 129/SVE mouse, brain	subcutaneous, 50 mg/kg, 13 h	–	brain concentration	952 nM
CCN1/C(=C/C(C)=O)Sc2ccc(F)cc21	–	–	cynomolgus monkey	oral, 30 mg/kg, 2 h post-dose	relative to: pre-dose	QTc interval change	99 ± 3%
Cc1ccc(C(=O)Nc2ccnc(S(N)(=O)=O)c2)c(N2CCCC(F)(F)CC2)n1	–	–	rhesus monkey, plasma	oral, 3 mg/kg	–	unbound plasma concentration	55 to 223 nM
OC[C@H]1O[C@@H](c2ccc(F)c(Cc3cc4ccccc4s3)c2)[C@H](O)[C@@H](O)[C@@H]1O	–	–	Japanese type 1 diabetes patients	oral, 100 mg/day, day 13	–	hypoglycaemia adverse events	7 % patients

A few entries again:
SMILES	target or system	assay	system	setting	how to read	quantity	result
Cn1cc(Nc2nccc(-c3ccc4c(c3)CN(C3COC3)CC[C@H]4NC(=O)c3cn(C(C)(C)C)nn3)n2)cn1	–	–	human, whole blood	50 mg twice daily, day 7	relative to: pre-dose baseline	CD8+ T cell count change	21.9%
Cc1c2oc3c(C)ccc(C(=O)N[C@@H]4C(=O)N[C@H](C(C)C)C(=O)N5CCC[C@H]5C(=O)N(C)CC(=O)N(C)[C@@H](C(C)C)C(=O)O[C@@H]4C)c3nc-2c(C(=O)N[C@@H]2C(=O)N[C@H](C(C)C)C(=O)N3CCC[C@H]3C(=O)N(C)CC(=O)N(C)[C@@H](C(C)C)C(=O)O[C@@H]2C)c(N)c1=O	–	–	children with cancer, plasma	dose not given, 15 min	–	maximum plasma concentration	122 µg/L
Cc1ncc2c(c1O)COC2c1ccc(Cl)cc1 (stereo not shown)	–	–	–	–	–	pKa (basic)	4.2
